# Measurements gathered from unrelated publications.
# Numbered parts are unrelated; each lists some results of a single study.

# Set 1 — method: RNA Bind-n-Seq; molecule type: RNA; matrix: in vitro; tested at: not given; setting: RNA with constant flanks, ends assumed; baseline: input RNA pool; direction: higher = stronger binding
# Target: RING finger protein unkempt homolog, zinc fingers 1-6, GST-SBP tag (UNK, Homo sapiens, UniProt Q9C0B0, residues 30-357)
# Constant ends, left off below: GGGAGUUCUACAGUCCGACGAUC … CAACAGAGGAUUGAGCAUCA
# Residues (chain): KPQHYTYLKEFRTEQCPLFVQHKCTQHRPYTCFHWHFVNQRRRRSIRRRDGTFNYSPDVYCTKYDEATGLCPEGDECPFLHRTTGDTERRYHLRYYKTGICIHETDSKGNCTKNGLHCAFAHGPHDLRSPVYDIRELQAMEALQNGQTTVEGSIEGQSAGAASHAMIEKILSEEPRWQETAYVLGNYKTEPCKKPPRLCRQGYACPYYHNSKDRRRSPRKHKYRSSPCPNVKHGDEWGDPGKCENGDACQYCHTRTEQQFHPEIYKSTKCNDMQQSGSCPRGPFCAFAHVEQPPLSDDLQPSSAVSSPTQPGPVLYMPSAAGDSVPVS
Sequence,bound/input enrichment
UUGGAGCAGCCCGUGGUGGUGCAGAGCGUGGGCACGGAUGGACGUGUCUUCCAUUUCCCCGUGUUUCAACUGAAUACCACAGACCUGGACUGUAACGAGGGUGUCAAGAAUUUGGCCUGG,0.0936 ratio
GGCUCUACGGCGAUUAAGAAGAAACAGCAAGAUGUGCUUUGUUUCUUAGAAGCCAACAAAACCGGAUUUGAAGAAAAAGAUAUUGCAGCUAAUGAAGAGAAUCGGAAGUGGAUGAGAGAA,0.383 ratio
UAUUGCAAGGACCUUCUUUGCUGCCAGUUACCAUAGGCUGUUUUAAGUUAGAAAACUGAACCGCAACACUGAAUACUGUAGAGAUGCACUUUGCUCAGUAAUACUUGAGUUGUUGCAAUA,0.347 ratio
AGACCAUGAAUUAUGGAAUUUCCUAAAUGAAGCAUUCAGGAAUGGAAUGAGAGAAUGUCACACCGAAAAUAAAUGAUUUUUAAGUUAUGUCUAUUAAUUUGACUCUAGAUAUAUAUAUUU,6.77 ratio
AGCAACGGAGAGCCCCACUUCCUACCAGAUGCAAUGUUUGGGCAACCAGGAGCCCCCGGCCGCACUCCAUUUCUUGGUCAGCAUGGUUUUAAUUUCUUUCCCAGUGGGAUUGACUUCUCA,0.211 ratio
CUGAAAGCUGCCAUUGCAGAAUGUGAAGAAGUUAGAAGAAAAAGUGAACUGUUUAACCCUGUCCGUUCCGACUGUAAGCUAAGGCAAAAAGCAAUUGCAGAAGUUGAUGUGGGUACAGAU,0.313 ratio
GAUGCAGUUCUUAUUGAUUACCAGAGAAAUGUACCAGCUGCUAGAGAACCAGAAGUGCUCCGUACUAUGGCCAUUAUUGUCAACAAAUUAGGUGGACAUAUAACAGCUGAAAUACCUCAA,0.204 ratio
AAGAUCCUUUCGGUAAAUGGCCAAGACCUAAAGAACCUGCUGCACCAGGAUGCUGCCGACCUCUUUCGUAAUGCAGGCUAUGCUGUGUCUCUGAGAGUGCAGCACAGGUUACAGGUGCAG,0.0799 ratio

# Set 2 — method: protein binding microarray; molecule type: double-stranded DNA, one strand shown; matrix: in vitro; tested at: not given; baseline: not given; direction: higher = stronger binding
# Target: Histone acetyltransferase KAT6A, both winged helices, GST fusion (KAT6A, Homo sapiens, UniProt Q92794, residues 1-181)
# Setting: 8-mer, flanks averaged, mean of 2 arrays, mostly near background
# Target sequence (chain): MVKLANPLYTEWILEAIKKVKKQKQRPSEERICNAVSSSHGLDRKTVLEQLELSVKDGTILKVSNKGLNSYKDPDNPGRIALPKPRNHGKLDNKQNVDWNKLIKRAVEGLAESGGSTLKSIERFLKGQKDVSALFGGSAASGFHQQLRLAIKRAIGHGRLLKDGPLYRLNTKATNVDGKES
Sequence,E-score
GGCGCTGA,0.161
CCGTCTGC,0.233
CATGGAAC,-0.0722
GTGGCTTA,-0.0429
CATTACGA,0.0987
CCGAGAAC,0.0938
ATGTTACA,-0.0785
TGTCGACA,-0.135
TATATCAA,0.0375
TGTACTAA,-0.05
ATCCCAAG,-0.0736
AGTGCCGC,0.224
AAGGGCAA,-0.0603
AACAATTA,0.0691
CGAAGTAG,-0.052
AATTTAAA,-0.177
CTCTTTCA,-0.144
AGCGGATA,0.231
ATTGCTTA,-0.105
ATAACTTC,-0.0385
CCTTACTA,-0.163
GCCGTAGA,0.233
ACCACTAT,-0.121
TTCAGAAA,-0.142
AGCTAATC,-0.129

# Set 3 — method: RNA Bind-n-Seq; molecule type: RNA; matrix: in vitro; tested at: 365 nM; baseline: no-protein control; direction: higher = stronger binding
# Target: RNA binding protein fox-1 homolog 2, RRM domain, GST-SBP tag (RBFOX2, Homo sapiens, UniProt O43251-10, residues 100-194)
# Setting: natural RNA segment, single round, ends assumed
# Constant ends, left off below: GGGAGUUCUACAGUCCGACGAUC … UGGAAUUCUCGGGUGCCAA
# Construct (chain): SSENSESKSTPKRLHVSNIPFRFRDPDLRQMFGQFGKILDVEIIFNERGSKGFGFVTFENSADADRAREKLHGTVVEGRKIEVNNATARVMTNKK
Sequence,RBNS enrichment (R)
AGAGAGAUCUGCAUGAGGGUGAGAACACACACCUACUCCCACCCAAGGACUCAGAACAACAUGGCUUUUUGAUCGGUACCAACCGACCUACAUCAAUUAGUUAUUGGACU,2.53
AAGAAACCUGGCAUUUAAAUCAUAUUUUGUCUUUAGGUAAAAGCUUUGGUUUGUGUUCGUGUUUUGUUUGUUUCACUUGUUUCCCUCCCAGCCCCAAACCUUUUGUUCUC,0.37
GCCAGUCAGAGACAAGUCCCAAGAGAUUUCAUGGAGCCUUGGAUGACACACACGCCAUCAGCCCUUGGGUGAUGACAGUGACCAGUGUUGUAUGGGGCUUUCCCAGAAUC,0.277
UUGUAAACAUUAUUGCCUGAGAUAUUUGUAUAUAACUUGGGCUUUGUAGCUUUUAUUUAUUCAGAACGCAUACGGCAUGUUAAUGACUCUGAUGGUGUCCUCCUCUGGGC,5.43
UUGGUUCCAAGUCUUUGCUAUUGUGAAUAAUGCCGCAAUAAACAUACGUGUGCAUGUGUCUUUAUAGCAGCAUGAUUUAUAGUCAUUUGGGUAUAUACCCAGUAAUGGGA,0.366
UCACAUGGUUUUGCCAUCCCUAAGUGAACAUCAUUCUGUCUUUGCUCAUGAGCUGGUCUAAUGCAGUCACAUUGGUGCUGAGCUGCCCAGGACCCUGGGACAUAGAUAAA,0.242
GAACAUCUGUGCCCGAUUUUAGUAUGUGCAGGGGGGCGAUCUGGGAAUCAGUCCCCUGUGGAUACCAAGGUACAACUGUAUUUAUUAACGCUUACUAGAUGUGAGGAGAG,0.344
CUGGCAAGGGCAGCCUAGACACCAUGCUGGGGCUGCUGCAGUCCGACCUCAGCCGCCGGGGUGUUCCCACCCAGGCCAAAGGCCUCUGUGGCUCCUGCAAUAAACCUAUU,0.222

# Set 4 — method: universal PBM; molecule type: double-stranded DNA, one strand shown; matrix: in vitro; tested at: not given; direction: higher = stronger binding
# Target: Sal-like protein 4, full length isoform B (SALL4, Homo sapiens, UniProt Q9UJQ4-2, residues 1-616)
# Setting: 8-mer, flanks averaged, mean of replicates
# Construct (chain): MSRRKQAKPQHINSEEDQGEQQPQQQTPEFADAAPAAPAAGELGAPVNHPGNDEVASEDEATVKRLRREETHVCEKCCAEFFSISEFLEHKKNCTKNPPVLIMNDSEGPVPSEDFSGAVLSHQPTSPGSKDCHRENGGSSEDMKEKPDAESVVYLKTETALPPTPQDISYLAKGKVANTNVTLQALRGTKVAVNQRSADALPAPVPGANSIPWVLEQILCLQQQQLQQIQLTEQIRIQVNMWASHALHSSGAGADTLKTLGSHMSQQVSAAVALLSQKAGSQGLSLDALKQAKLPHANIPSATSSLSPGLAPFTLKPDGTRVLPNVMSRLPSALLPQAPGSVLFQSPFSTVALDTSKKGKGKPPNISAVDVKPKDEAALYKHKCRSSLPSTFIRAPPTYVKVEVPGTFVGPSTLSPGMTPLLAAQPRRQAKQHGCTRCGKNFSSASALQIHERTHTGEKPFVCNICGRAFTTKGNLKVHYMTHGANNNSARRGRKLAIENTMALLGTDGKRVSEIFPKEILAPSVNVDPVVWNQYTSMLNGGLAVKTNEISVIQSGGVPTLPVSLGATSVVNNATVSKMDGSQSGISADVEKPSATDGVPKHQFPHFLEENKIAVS
Sequence,E-score
GAGAGCCA,-0.0717
GTGCGAAC,-0.24
AATCATAA,0.441
CGCGTTAG,-0.0676
GTGGTAAC,0.114
ACCTTTGA,-0.0383
CTGTACAA,0.181
GATTGGTA,0.134
CTCAGCAG,-0.3
GCGTTGAA,-0.14
ATTCCACC,0.0545
CGCGAAGC,-0.129
GGACATAC,0.0262
AAACGGGA,-0.0459
CGTCCCCA,-0.197
ACCTGAGA,0.00101
CCTTGCGA,-0.202
CGAAGGAA,-0.0324
ACCGACGG,-0.297
ATGTTCGA,0.0988
AGAAGGAT,0.0304
CGAGCCAC,-0.207

# A few entries again (set 2):
Sequence,E-score
ATAACTTC,-0.0385
GTGGCTTA,-0.0429
AAGGGCAA,-0.0603
ATTGCTTA,-0.105
ATGTTACA,-0.0785
CATTACGA,0.0987
AGCTAATC,-0.129
ATCCCAAG,-0.0736
CATGGAAC,-0.0722
